Measured values gathered from unrelated publications.
Parts stem from different laboratories: compare values within a part only. Positions count from the first letter of the parent shown.

Set 1 — technique: DHFR PCA, deep sequencing; sample: yeast; together with: (+)-ABA 1.4 µM; baseline: wild-type fitted maximum; reading: higher = stronger binding; quantity: relative binding score
Target: ABI1, truncated, D143A, DHFR fusion (Arabidopsis thaliana)
Setting: methotrexate growth selection, single substitutions
Starting sequence: PYL1, truncated, DHFR fusion (Arabidopsis thaliana); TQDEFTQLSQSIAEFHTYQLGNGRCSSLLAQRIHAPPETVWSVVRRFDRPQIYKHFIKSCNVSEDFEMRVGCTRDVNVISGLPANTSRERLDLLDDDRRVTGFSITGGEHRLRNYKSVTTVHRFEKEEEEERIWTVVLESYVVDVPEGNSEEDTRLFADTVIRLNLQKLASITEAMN
L164A: 67.9%
F124V: 59.6%
I79F: 43%
L166E: 9.48%
T154P: -9.88%
T1E: 65.6%
L94R: -0.145%
L138Y: 1.83%
T1C: 65.3%
L169Y: -21.4%
G148D: 14.4%
L93E: 13.5%
V143C: 47.7%
G108R: -3.39%
E38Q: 24.7%

Set 2 — technique: RNA Bind-n-Seq; molecule type: RNA; sample: in vitro; concentration: 200 nM; setting: whole 134-nt RNA, ends assumed; together with: 150 mM LiCl; baseline: input library; reading: higher = stronger binding; quantity: log2 enrichment; each molecule: 7-deaza-guanosine replaces G
Target: Ras GTPase-activating protein-binding protein 1, full length (G3BP1, Homo sapiens, UniProt Q13283)
Chain of UniProt Q13283 (whole entry, looked up): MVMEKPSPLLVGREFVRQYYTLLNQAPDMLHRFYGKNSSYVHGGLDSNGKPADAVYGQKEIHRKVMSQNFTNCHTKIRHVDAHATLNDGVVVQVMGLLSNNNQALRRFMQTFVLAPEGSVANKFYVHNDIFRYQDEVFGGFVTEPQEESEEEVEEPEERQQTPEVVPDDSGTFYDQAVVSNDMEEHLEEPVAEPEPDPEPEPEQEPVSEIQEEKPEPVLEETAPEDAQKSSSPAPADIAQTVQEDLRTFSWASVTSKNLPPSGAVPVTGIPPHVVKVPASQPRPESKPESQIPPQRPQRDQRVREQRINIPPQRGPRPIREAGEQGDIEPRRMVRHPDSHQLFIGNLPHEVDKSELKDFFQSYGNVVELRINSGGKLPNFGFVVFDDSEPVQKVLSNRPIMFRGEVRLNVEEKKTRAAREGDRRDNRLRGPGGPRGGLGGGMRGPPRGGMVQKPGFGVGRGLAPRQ
All sequences stand within: GGGAGUUCUACAGUCCGACGAUC … UGGAAUUCUCGGGUGUCAAGG
UGGCCCUGGUGGCAUGCGGGGAGGAAGAGGUGGCCUCAUGGAUCGUGGUGGUCCCGGUGGAAAGUUCAGAGGUGGCCGUGGUGGAGACAG: 0.449
CUCAAGUCCUGUGCUACACAUCGUAUGUACCGAAUCGGGAGGGAGGGGAGGGGAAAGUAUUAUGUUACGCCGUUCGGAUCUGCACUUCCA: -0.248
UCCUGUGCUACACAUCGUAUGUACCGAAUCGGUUUUUUGGGUUUUUUGGGGUUUUUUGGAAAGUAUUAUGUUACGCCGUUCGGAUCUGCA: 0.798
GUCCUGUGCUACACAUCGUAUGUACCGAAUCGGGUUUUUGGGGUUUUUGGGUUUUUGGAAAGUAUUAUGUUACGCCGUUCGGAUCUGCAC: -0.212
GCAGGAAGUAAAAACAAAUGGAAAUGCUUCGGAUAGUGGCAGGGGUGGGGGUUGCUAAGCAAAGGGUGGGAUGGGAGUGGGUAAAGAGUU: 0.171
AGUCCUGUGCUACACAUCGUAUGUACCGAAUCGGGGAAAGGGGUUUGGGGAAAGGGGAAAGUAUUAUGUUACGCCGUUCGGAUCUGCACU: -0.459
UAACUUUAGAGGAGGAUCUGAUGGAUAUGGCAGUGGACGUGGAUUUGGGGAUGGCUAUAAUGGGUAUGGAGGAGCACCUGGAGGUGGCAA: 0.282
AGUCCUGUGCUACACAUCGUAUGUACCGAAUCAAACCCAAACCCAAAUUUUUUUAAAAAAGUAUUAUGUUACGCCGUUCGGAUCUGCACU: 0.935
CAAGUCCUGUGCUACACAUCGUAUGUACCGAAUCAAACCCAAACCCAAACCCAAAAAAGUAUUAUGUUACGCCGUUCGGAUCUGCACUUC: 0.224
CAAGUCCUGUGCUACACAUCGUAUGUACCGAAUCGGAAAAAGGUGGAAAAAAAGGAAAGUAUUAUGUUACGCCGUUCGGAUCUGCACUUC: -0.702
UGUGUGCAUUCCCUGCGCCAAGGGCUUCCCCAGCUCUGAGCAGCUCAAUGCGCACGUGGAGACUCACACGGAGGAAGAGCUGUUCAUCAA: -0.666

Set 3 — technique: RNA Bind-n-Seq; molecule type: RNA; sample: in vitro; concentration: not given; baseline: input RNA pool; reading: higher = stronger binding; quantity: bound/input enrichment
Target: RING finger protein unkempt homolog, zinc fingers 1-6, GST-SBP tag (UNK, Homo sapiens, UniProt Q9C0B0, residues 30-357)
Setting: RNA with constant flanks, human and mouse sites, ends assumed
All sequences stand within: GGGAGUUCUACAGUCCGACGAUC … CAACAGAGGAUUGAGCAUCA
Target sequence (chain): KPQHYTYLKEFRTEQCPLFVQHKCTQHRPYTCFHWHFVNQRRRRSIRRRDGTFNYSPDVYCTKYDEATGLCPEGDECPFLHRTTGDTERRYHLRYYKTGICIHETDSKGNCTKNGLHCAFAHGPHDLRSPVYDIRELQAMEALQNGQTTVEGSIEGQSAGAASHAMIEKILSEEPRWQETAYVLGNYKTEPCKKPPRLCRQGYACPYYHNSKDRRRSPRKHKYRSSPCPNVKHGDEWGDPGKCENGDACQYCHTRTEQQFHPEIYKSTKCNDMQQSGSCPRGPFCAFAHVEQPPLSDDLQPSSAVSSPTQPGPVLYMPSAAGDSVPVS
UGUGAUAAAAUAAACAGUGAGAUUCCCCCACUGCCUUUCCCUUCAUCAAGGGAACACCAUAAUUUUCUUAAGCUGUGCCUGAAGUUGCUUUCAAAUCACCUUGCUCUGGCCCUGGCGGGA: 0.292 ratio
CCUGUUUGUGAAGGGGUGUCGAAGCUAGAAGAAUCCUCUAAAGCAACUCCUGCAGAGAUGGAUUUGGCCCACAACAGCCAAAGCAUGCACGCCUCUUCAGCUUCCAAAUCUGUGCUGGAG: 0.132 ratio
CAACUGUCAUUACCCCUUAACUUCCUGGGAACUGUAUAUAGAGAGACAAGACAAGCACUCAUAGAUAUGAACACCUUGUUUACUCUGCUCAAGGUAGACACACGGAUUAAAGACAAAGUG: 0.408 ratio
GUUGGAGAUACACAAGUGGUUGUUUUUAAGCAUGAAAAAGAAGAUGGUGCCAUUUCUACUAUAGUUCUUCGAGGUUCUACAGACAAUCUGAUGGAUGACAUAGAAAGGGCAGUAGAUGAU: 0.762 ratio
GGGUAUGAUUUGGGUGUGGAGACCUCUCAGGUUGGGACUUCUUGUCAGCUUGGACCCCUGACCAGUGGGCUUUGGCUUCUCCAGCCGCCUCCAGUGCUGCGUGAUUUGAUUCUGUUGUAC: 0.146 ratio
AUGAUGUGUAUUGCUGGGAUUGGACUCGUUGUGUUAUUCUUCAGUUGGAUGCUCUCUAUCUUUCGAUCAAAAUACCAUGGCUAUCCAUACAGCUUUCUGAUGAGUUAAAGAGGAUUCCAG: 0.087 ratio
GUGACUCAAGCUGCACCACCCACACCUACUCCUCCAGUGCCCCCAGCAAAAAAGCAGCCAGCUUUCCCUGCUUCUUACAUUCCACCCUCUCCCCCUACCCCUCCUGUUCCAGUACCCCCG: 0.724 ratio
UUGGCUCACCCUGAUGCUCCAAUGUCCCAGGUUUAUGGAGCACCACACCUACUGAGAUUAUUUGUAAGAAUUGGAGCAAUGUUGGCCUAUACGCCCCUUGAUGAGAAAAGCCUUGCAUUA: 0.149 ratio
UUGCUUGAGAUGAACCUUAUGCACGCACCUCAAGUUGCAGAUGCCAUUCUCGGGAAUCAGAUGUUCACCCACUAUGACCGGGCUCAUAUCGCCCAGCUGUGUGAGAAGGCGGGCCUGCUG: 0.0877 ratio
AGAUGCAGAGAAAGGGACUCAGAUGAUACUUGUAGGCAGCAUAAUACGUCAAAAAGUCCAUUUAGGGAAAUGGAACCUUUGUUGUCACCACACCAUGAUAAACUCAUGUCUUUGCCAGUU: 0.257 ratio
AAAGCCCUGUGAAGGUCUACUGACCGCUCACUAUUGUCUGGUAUCUGUAAACACUUCUGUUUAGUCCUUUCAUGGUAUAAUUGAUGUUCUUUAAAACUGUCAGUGUAAAACAGGGCUUAU: 14.9 ratio

Set 4 — target: CCNB1, cyclin fold, Cln2 fusion (human); technique: yeast growth competition, sequencing; sample: yeast; setting: weak parent motif; baseline: not given; reading: higher = stronger binding; quantity: normalised enrichment score
Starting sequence: SAMHD1 docking peptide (human); ASKSRVQLFKDDP
D12K: 0.46
V6A: 0.21
F9S: 0.226
V6N: 0.113
K10W: 0.0781
R5D: -0.311
F9A: 0.261
F9Y: 0.142
S2C: 0.399
K10L: 0.469
D11M: 0.142
S4L: 0.742
S4A: 0.67
K10G: 0.0664
V6F: 0.259
V6I: -0.248
K3H: 0.335
D11L: 0.0319
R5T: 0.155
D12I: 0.235
K3I: 0.144
D12C: 0.355
D11F: 0.322
S4Q: 0.212
K10N: 0.386

Set 5 — target: CRIPT, C-terminal peptide; technique: DHFR complementation, deep sequencing; sample: yeast; baseline: wild type; reading: higher = weaker binding; quantity: binding free energy change
Setting: single substitutions, model-inferred values
Starting sequence: ERBIN, PDZ domain 1 (human); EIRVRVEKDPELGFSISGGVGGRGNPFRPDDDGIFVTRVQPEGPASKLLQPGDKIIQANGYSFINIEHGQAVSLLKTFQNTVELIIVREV; partner TKNYKQTSV
P29Q: 0.0644 kcal/mol
E83V: 0.107 kcal/mol
R23P: 0.444 kcal/mol
L12D: 1.27 kcal/mol
R23M: -0.302 kcal/mol
S73E: 0.0665 kcal/mol
T37E: 1.12 kcal/mol
K54R: 0.271 kcal/mol
G33H: 0.855 kcal/mol
S62R: 0.093 kcal/mol
F78S: 0.207 kcal/mol
I56K: 0.0698 kcal/mol
D9E: 0.177 kcal/mol
L12Y: 0.272 kcal/mol
E7A: -0.0906 kcal/mol
G33L: 1.25 kcal/mol
V90A: 0.00152 kcal/mol
I56R: 0.129 kcal/mol
V20L: -0.113 kcal/mol
G21R: 0.0835 kcal/mol
N59P: 0.836 kcal/mol
E11S: 0.234 kcal/mol
F78Y: 0.207 kcal/mol
I56N: 0.208 kcal/mol
N59R: -0.0234 kcal/mol

Repeated from above (set 1):
T154P: -9.88%
L164A: 67.9%
T1E: 65.6%
L93E: 13.5%
G108R: -3.39%
